Published values from different studies.
Parts stem from different laboratories: compare values within a part only.

Set 1
Target: Histone acetyltransferase KAT6A, both winged helices, GST fusion (KAT6A, Homo sapiens, UniProt Q92794, residues 1-181)
Technique: protein binding microarray
Form: double-stranded DNA, one strand shown
Medium: in vitro
Tested at: not given
Setting: 8-mer, flanks averaged, mean of 2 arrays, mostly near background
Relative to: not given
Direction: higher = stronger binding
Target sequence (chain): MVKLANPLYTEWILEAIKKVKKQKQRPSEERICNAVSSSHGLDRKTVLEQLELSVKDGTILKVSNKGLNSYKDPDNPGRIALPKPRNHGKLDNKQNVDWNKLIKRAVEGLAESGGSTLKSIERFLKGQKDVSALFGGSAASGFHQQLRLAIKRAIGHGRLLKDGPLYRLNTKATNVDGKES
Sequence | E-score
CAGCACAC | -0.119
AAACAGGC | 0.0181
CCTTAGTA | -0.0629
TTACATAA | -0.0654
ACCACTGA | -0.092
AGGGCTTA | -0.103
TGGAGGAA | -0.159
AGTGACCA | -0.305
CATGAGTA | -0.0227
GCCCAAAA | -0.147
CGCCGGGC | 0.308
AACACCCA | -0.185
CTGTGCGA | 0.0146
GGAAAGCC | -0.0194
CATACTAC | -0.0416
ATGAACAT | -0.0373
CGTCGGGC | 0.28
GAGCACAC | -0.177
CCATGGCA | -0.0912
CGGGCTCC | 0.0982
CGCGAGCC | 0.304
CCCGTTGC | 0.23
ACTTTCGG | -0.0977
ACCTGGAT | -0.195
CCAGGCGA | -0.155

Set 2
Target: Centromere-binding protein 1, full length, His-tagged (CBF1, Saccharomyces cerevisiae, UniProt P17106, residues 1-351)
Chain of UniProt P17106 (whole entry, looked up): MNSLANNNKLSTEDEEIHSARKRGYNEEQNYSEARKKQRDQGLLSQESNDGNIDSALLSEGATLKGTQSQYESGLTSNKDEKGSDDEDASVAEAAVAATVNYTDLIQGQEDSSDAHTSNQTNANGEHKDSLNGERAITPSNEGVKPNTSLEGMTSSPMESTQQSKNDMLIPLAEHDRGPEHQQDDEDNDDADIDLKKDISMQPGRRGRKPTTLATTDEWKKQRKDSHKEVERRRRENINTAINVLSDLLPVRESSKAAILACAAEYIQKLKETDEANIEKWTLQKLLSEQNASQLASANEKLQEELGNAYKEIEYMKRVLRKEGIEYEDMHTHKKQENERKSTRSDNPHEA
Technique: competition protein-binding microarray
Form: double-stranded DNA, one strand shown
Medium: in vitro
Tested at: 2 µM
Setting: whole 60-bp probe, lowest competitor level
Added: Pho4 competitor, 0.05 µM
Direction: higher = stronger binding
Constant ends, left off below: … GTCTTGATTCGCTTGACGCTGCTG
Sequence | fluorescence intensity [a.u.]
AGCATAATGCCGGACCATGTGAAAAGTTCACTCAAA | 113
GTCTTGTCTCATTGTCACTCTACTTTCCCCACTTCA | 95.3
CGTCCTAGTGATTTTCACGTGCCGTCCATGAGGAAG | 1200
ATTGTTCCACCCGACCACGTGCTTTTTCATAAGGGT | 2420
CTTCTGTAAATTTGTCACGCCACTTGACGCGCCCCG | 316
CAGCCCAGGTCCAATGTCGTGCAAAACGCAGATCCT | 58.9
ACTTTGCAAAAAAAGCACGCAGCAGGAAGCTCTTGA | 66.3
TGTCCCAATCTAACACACATGAGTCGTCGAACGCCA | 77.9
AAGGATACACAAAGGCAGGTGATTCCTGACTACCAA | 119
ATTCCTGAAGAATCCAAAGGATCTTTTAAGTATATA | 87.5
CGTCCTAGTGATTGTGTGGTGGGTGCCATGAGGAAG | 91.8
TGTGGATCATATCACCACGTGTTTTTTCAATCCTTT | 1380
GCAATTGAGCTTTAGCACGTGCAATTAGGATGAAAA | 2290
GCGTAAGTCGCTCCACACGTACATTGCTGTGGTGCA | 60.5
CTTTCCCGATCTTTTCACGTGGGGTTAGCACATTTG | 711
CTTTCCCGATCTTGGCGAGTGGGTGTAGCACATTTG | 61.9
AGCAGCAGAGTCATCTTCGTGCTAAACAGTTGGTAC | 78.9
GTCTTGTCTCATTTTCACGTGTACTTCCCCACTTCA | 696
ATATTTCAGCTCCATCACGTGCTTTCAAAGGTACTT | 4060
GTAGCTACATTGCCGTGCGTGGCAACAACCTAATTA | 62.5
CGTCCTAGTGATTGGATCGTGGGTGCCATGAGGAAG | 89.9
CGTCCTAGTGATTGTCACACTACTTCCATGAGGAAG | 92.6
CATGGAAGTTACCATCACCTGCATTACCAACAATGG | 112
TTGGTGTTTCAGGTATTCGTGCTAATCAACGTTACT | 68.8

Set 3
Target: Ras GTPase-activating protein-binding protein 1, full length (G3BP1, Homo sapiens, UniProt Q13283)
Chain of UniProt Q13283 (whole entry, looked up): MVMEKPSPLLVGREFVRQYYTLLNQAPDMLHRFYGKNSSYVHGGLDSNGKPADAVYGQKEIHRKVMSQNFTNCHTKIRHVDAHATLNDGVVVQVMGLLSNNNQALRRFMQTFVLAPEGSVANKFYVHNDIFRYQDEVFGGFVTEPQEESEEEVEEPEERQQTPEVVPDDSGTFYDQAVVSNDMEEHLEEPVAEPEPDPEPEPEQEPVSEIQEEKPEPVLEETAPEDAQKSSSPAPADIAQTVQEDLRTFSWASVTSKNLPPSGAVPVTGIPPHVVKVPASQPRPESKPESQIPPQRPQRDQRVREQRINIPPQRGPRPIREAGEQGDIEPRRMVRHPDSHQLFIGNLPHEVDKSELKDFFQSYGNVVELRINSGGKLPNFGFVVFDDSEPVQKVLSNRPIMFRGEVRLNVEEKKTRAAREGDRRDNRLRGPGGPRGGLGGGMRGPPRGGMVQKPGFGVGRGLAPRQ
Technique: RNA Bind-n-Seq
Form: RNA
Medium: in vitro
Tested at: 200 nM
Setting: whole 134-nt RNA, ends assumed
Added: 150 mM KCl
Relative to: input library
Direction: higher = stronger binding
Constant ends, left off below: GGGAGUUCUACAGUCCGACGAUC … UGGAAUUCUCGGGUGUCAAGG
Sequence | log2 enrichment
UGGGAGGUGGAUUUUGUUUAUUUUUUUAGCUCAUUUCCAGGGGUGGCAAUUUUUUUUUAAUAUGUGUCAUGAAUAAAGUUGUUUUUGAAA | 0.164
UCAAGUCCUGUGCUACACAUCGUAUGUACCGAAUCGGGGCGGGGCGGGGCGGGGAAAGUAUUAUGUUACGCCGUUCGGAUCUGCACUUCC | 1.69
UCCUGUGCUACACAUCGUAUGUACCGAAUCGGGGAAAAAGGGAAAAAGGGAAAAAGGGGAAAGUAUUAUGUUACGCCGUUCGGAUCUGCA | 0.175
UUGACGAGGCCGGCCCGGGAGAUGAGACCACCGGCCAGGAAGUCAUUGUCAUUCAGGACACGGGCUUUUCUGUGAAGAUCCUCGCCCCUG | -1.17
CUGUGCUACACAUCGUAUGUACCGAAUCGGGUUUUUUUGGGUUUUUUUGGGGUUUUUUUGGGAAAGUAUUAUGUUACGCCGUUCGGAUCU | -0.956
UUCCUCAAGUCCUGUGCUACACAUCGUAUGUACCGAAUCGGCGGCGGCGGAAAGUAUUAUGUUACGCCGUUCGGAUCUGCACUUCCAGCA | -0.281
UCCUGUGCUACACAUCGUAUGUACCGAAUCAAAUUUUUAAACCCCCCCAAAUUUUUAAAAAAGUAUUAUGUUACGCCGUUCGGAUCUGCA | 0.37
UGGGAGGUGGAUUAUGUUUAUUUUUUUAGCUCAUUUCCAGGGGUGGGAAUUUUUUUUUAAUAUGUGUCAUGAAUAAAGUUGUUUUUGAAA | -0.0304
GUGCUACACAUCGUAUGUACCGAAUCGGGGAAAAAAAGGGGAAAAAAAGGGGUUUUUUUGGGGAAAGUAUUAUGUUACGCCGUUCGGAUC | -0.141
GCAGGAAGUAAAAACAAAUGGAAAUGCUUCGGAUAGUGGCAGGGGGGGGGGUUGCUAAGGAAAGGGUGGGAUGGGAGUGGGUAAAGAGUU | 1.19
GCAGGAAGUAAAAACAAAUGGAAAUGCUUCGCAUAGUGGCAGGGGUGGGGGUUGCUAAGGAAAGGGUGGGAUGGGAGUGGGUAAAGAGUU | 1.35
CUGUGCUACACAUCGUAUGUACCGAAUCGGGGUUUUUUUGGGUUUUUUUGGUUUUUUUGGGAAAGUAUUAUGUUACGCCGUUCGGAUCUG | -1.04
AAGUCCUGUGCUACACAUCGUAUGUACCGAAUCGGGAAAAAAAGGGAAAGGGUGGGAAAGUAUUAUGUUACGCCGUUCGGAUCUGCACUU | 0.364
CACAGACAACACGCACCCACACAGACACAGAGGGAAGGGGUUGGGAUGGGGCCAGGGUGCACAGCAGGGCGGGGUAGGACCCCAGCCCCU | 1.84

Set 4
Target: RNA binding protein fox-1 homolog 2, RRM domain, GST-SBP tag (RBFOX2, Homo sapiens, UniProt O43251-10, residues 100-194)
Technique: RNA Bind-n-Seq
Form: RNA
Medium: in vitro
Tested at: 365 nM
Setting: natural RNA segment, single round, ends assumed
Relative to: no-protein control
Direction: higher = stronger binding
Constant ends, left off below: GGGAGUUCUACAGUCCGACGAUC … UGGAAUUCUCGGGUGCCAA
Target sequence (chain): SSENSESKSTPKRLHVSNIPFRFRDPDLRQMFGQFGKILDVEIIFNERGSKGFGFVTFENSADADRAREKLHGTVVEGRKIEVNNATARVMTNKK
Sequence | RBNS enrichment (R)
GAGCUUGUGGUGUGCUUUGCAGGAGGACUUGAAGCAGAGUUCACCAGUGAGCUCAGGUGUCUCAAAGAAGGGUGGAAGUUCUAAUGUCUGUUAGCUACCCAUAAGAAUGC | 1.96
GGAGCUGAGGUCAGCAAGCCAGUGGUUCUUAAGAGCUGAACCUCUGGCUUUACUGUUGGAAGUUGUCUAUUUCAACCUCAGAGUUUCCUAAUAUGGCGCUCCUGAUCUAU | 0.282
UGUGUCUAAGAUGAAAUAAAAUGUAACUUUUGCUGCAGUGGUAUGUUUCUUUUGGAGUACAACAUGUAUGCCGUUUACAACACACACAUGGUAACGGGGAUCACAUGCUC | 0.297
UCUUGUAUUUUCUGACCACAUAAAGGCUUCUUCUCUUUGUAAUAAAGUAGAAAAGCUCUCCUCACUGAGUGUUGGCUUUGAUUUGAAAUUGUGACAUUUCUUCUUCUCCA | 0.294
UACCCAUCAACAUAAUCACUCUGACAAUGUUCACGCAUUCAACUAUGAGUUCAUAUGUGGAAGAAAACUGGUGUUUUAGUAAAACCAAGUUCUUGACAUUAAUCUGUUGA | 0.35
AUUGAUAUCAUACAUUUAGACUGCUGUUCUGAUUGCAUUUAUCUUUUUCCUACAUCAUUUAGAAUUUUAUUUCCCUGAUUCAGUUUUUGCUGCUGUGAAACAGCUCUGAU | 0.314
AAGAGGGGCCCAGUAUCAGUUUGUUGAAUUUGUCAAAUCUUUUCCUGGACAUAAAUGAGACUAUUGAAGGAAGUAACGUCCCACCGUCGUGAUGCUGUGUGAGAAGAUGG | 3.59
GUUUAAGGGCUUAAAUCUCAAACUUUGUUAGGAGUAACAGGAGCGUGCUGAGCGGGCAAGCAAUAAAACAAAUCAUACCAAAAAGCCACAUUGCUCUCUCCUAAGCCCCA | 0.476
GUUUUGCGAUCCUAGGAUGCGUCCCAGACGCUCAGUCAGAAGUGCUGGAGGUGGGGCCUGGGAAGCUGUAUUUGUAAUGAACUCUGGUGUUUUUUGUCCAUUAAAGUGUA | 2.05
CGUUUUUUUAAAUUUUUUAUUCUGAUUGCUGUAUUAUAUUGGGGAUGUUCUAAACAACCAAACUAAAGCUGUGUACAGAUUGGGUUUGGAGCGGUGGGGACGUCAGCAGG | 0.582
CUGCUGUCAGAACAGAAGACCUCGCUGCCCUGAGGACAAGCACUUGCCACCACCGUCACUCAGCCCUGGGCGUAGCCGGACAGGAGGAGAGCAGUGAUGCGGAUGGGUAC | 0.228
CUUUGUGACUGUUUGCUAGUGACGCAACUAUUGGUUUUUUGUCAACUGGGCAAUAUGGGUAAAAUUUCCUUUUUUCCCUAAGAAUGAGGUCUUCCAUGUUUGAGGAAAUG | 1.01

Repeated from above (set 3):
Sequence | log2 enrichment
GCAGGAAGUAAAAACAAAUGGAAAUGCUUCGGAUAGUGGCAGGGGGGGGGGUUGCUAAGGAAAGGGUGGGAUGGGAGUGGGUAAAGAGUU | 1.19
UCCUGUGCUACACAUCGUAUGUACCGAAUCGGGGAAAAAGGGAAAAAGGGAAAAAGGGGAAAGUAUUAUGUUACGCCGUUCGGAUCUGCA | 0.175
GCAGGAAGUAAAAACAAAUGGAAAUGCUUCGCAUAGUGGCAGGGGUGGGGGUUGCUAAGGAAAGGGUGGGAUGGGAGUGGGUAAAGAGUU | 1.35
CUGUGCUACACAUCGUAUGUACCGAAUCGGGGUUUUUUUGGGUUUUUUUGGUUUUUUUGGGAAAGUAUUAUGUUACGCCGUUCGGAUCUG | -1.04
AAGUCCUGUGCUACACAUCGUAUGUACCGAAUCGGGAAAAAAAGGGAAAGGGUGGGAAAGUAUUAUGUUACGCCGUUCGGAUCUGCACUU | 0.364
CACAGACAACACGCACCCACACAGACACAGAGGGAAGGGGUUGGGAUGGGGCCAGGGUGCACAGCAGGGCGGGGUAGGACCCCAGCCCCU | 1.84
CUGUGCUACACAUCGUAUGUACCGAAUCGGGUUUUUUUGGGUUUUUUUGGGGUUUUUUUGGGAAAGUAUUAUGUUACGCCGUUCGGAUCU | -0.956
